# Published values from different studies.
# Protocols differ between the studies behind these lines.
SMILES,organism,test,system,setting,how to read,measurement,result
CN1CCC(n2cnc(-c3ccc(F)cc3)c2-c2ccnc(NCCO)n2)CC1,Trypanosoma brucei,,,unit not given,relative to: pEC50 T. brucei minus pTC50 HepG2,selectivity,> 1.8
N#Cc1sc2nc(-c3ccccc3)cc(C(F)(F)F)c2c1N,Mus musculus,"gene silencing, high-content imaging",LDR reporter GFP cells,retest run 1,,maximal activity,20%
CC(C)n1ncc2c(C(=O)NCC3(C)CNC3)cc(C3CC3)nc21,Enterovirus A71,viral replication,Tainan/4643/1998,9000 nM,,plaque reduction,100%
CN(c1ccc(NC(=O)Nc2c(Cl)cccc2Cl)cc1)c1ccnc(Nc2cccc(CS(C)(=O)=O)c2)n1,Trypanosoma brucei,,,unit not given,relative to: pEC50 T. brucei minus pTC50 HepG2,selectivity,0.8
CCc1nc2[nH]c(=O)n(O)c(=O)c2s1,Digitaria adscendens,,,"750 g/ha, 21 days, post-emergence, glasshouse pot",,growth inhibition,0%
COc1ccnc(CSC(N)=Nc2ccccc2OC)c1.Cl,Mus musculus,"gene silencing, high-content imaging",LDR reporter GFP cells,retest run 1,,maximal activity,99%
O=C1NC(=O)C(c2ccccc2Cl)=C1Nc1cccc(O)c1,Trypanosoma brucei,,,unit not given,relative to: pEC50 T. brucei minus pTC50 HepG2,selectivity,> 1.7
CCc1ccc(NC(=O)C2CCC(CNS(=O)(=O)c3ccc4c(c3)CC(C)N4C(C)=O)CC2)cc1 (stereo not drawn),Mus musculus,"gene silencing, high-content imaging",LDR reporter GFP cells,retest run 1,,maximal activity,29%
CCS(=O)(=O)c1ccc(OC)c(Nc2nccc(N(C)c3ccc4c(C)n[nH]c4c3)n2)c1,Trypanosoma brucei,,,unit not given,relative to: pEC50 T. brucei minus pTC50 HepG2,selectivity,> 1.5
CCOc1ccc(NC(=O)c2nc(S(=O)(=O)Cc3ccccc3F)ncc2Cl)cc1,Mus musculus,"gene silencing, high-content imaging",LDR reporter GFP cells,retest run 1,,maximal activity,14%
CCn1c(=O)c(-c2cc[nH]n2)cc2c(C)nc(N)nc21,Enterovirus A71,histopathology,"EV71-infected suckling mice, spleen",0.25 mg/kg,direction not given,total pathology score,1
CN1CCN(CCCNc2nc3ccc(Oc4ccc(NC(=O)Nc5cc(C(F)(F)F)ccc5F)cc4)cc3[nH]2)CC1,Trypanosoma brucei,,,unit not given,relative to: pEC50 T. brucei minus pTC50 HepG2,selectivity,1
CN[C@H](CC(C)C)C(=O)N[C@H]1C(=O)N[C@@H](CC(N)=O)C(=O)N[C@H]2C(=O)N[C@H]3C(=O)N[C@H](C(=O)N[C@H](C(=O)O)c4cc(O)cc(O)c4-c4cc3ccc4O)[C@H](O)c3ccc(c(Cl)c3)Oc3cc2cc(c3O[C@@H]2O[C@H](CO)[C@@H](O)[C@H](O)[C@H]2O[C@H]2C[C@](C)(N)[C@H](O)[C@H](C)O2)Oc2ccc(cc2Cl)[C@H]1O,Streptococcus pneumoniae,broth microdilution,penicillin-resistant isolates,,,MIC90,1 µg/mL
Cc1ccc(Sc2cc(NCCCO)c([N+](=O)[O-])c3nonc23)cc1,Mus musculus,"gene silencing, high-content imaging",LDR reporter GFP cells,retest run 1,,maximal activity,51%
N=C(N)c1ccc(OCCCCCOc2ccc(C(=N)N)cc2)cc1,Trypanosoma brucei brucei,,"Lister 427, BALB/c mice, infection","ip, 4 mg/kg once at 2 dpi, 3 dpi",,blood parasitaemia,< 250000 parasites/mL
CCOC(=O)c1cnc2c([N+](=O)[O-])cc(C(F)(F)F)cc2c1NCc1ccc(C(F)(F)F)cc1,Trypanosoma brucei brucei,resazurin viability,"Lister 427, bloodstream form",,relative to: HEK293 CC50 over T. brucei IC50,selectivity ratio,~3
O=c1oc2c(O)c(O)cc3c(=O)oc4c(O)c(O)cc1c4c23,Streptococcus mutans,broth microdilution,,,,MBC/MIC ratio,2
CCN(CC)Cc1ccc(Nc2nccc(-c3cnn4ncccc34)n2)cc1,Trypanosoma brucei,,,unit not given,relative to: pEC50 T. brucei minus pTC50 HepG2,selectivity,> 3.5
Cc1cc(NC(=O)C2CCCN(S(=O)(=O)c3cccc4nonc34)C2)ccc1Br (stereo not drawn),Mus musculus,"gene silencing, high-content imaging",LDR reporter GFP cells,retest run 1,,maximal activity,28%
NS(=O)(=O)c1ccc(Nc2cc(-c3ccc(O)c(F)c3)n[nH]2)cc1,Trypanosoma brucei,,,unit not given,relative to: pEC50 T. brucei minus pTC50 HepG2,selectivity,> 1.3
CC(=O)N[C@@H](CSC(=O)[C@]1([C@@H](O)C(C)C)NC(=O)[C@H](C)[C@@H]1O)C(=O)O,Mus musculus,"gene silencing, high-content imaging",LDR reporter GFP cells,"30 h, retest run 2",,Emax,72%

# Repeated from above:
SMILES,organism,test,system,setting,how to read,measurement,result
NS(=O)(=O)c1ccc(Nc2cc(-c3ccc(O)c(F)c3)n[nH]2)cc1,Trypanosoma brucei,,,unit not given,relative to: pEC50 T. brucei minus pTC50 HepG2,selectivity,> 1.3
CCOC(=O)c1cnc2c([N+](=O)[O-])cc(C(F)(F)F)cc2c1NCc1ccc(C(F)(F)F)cc1,Trypanosoma brucei brucei,resazurin viability,"Lister 427, bloodstream form",,relative to: HEK293 CC50 over T. brucei IC50,selectivity ratio,~3
